Measured values pooled from the literature.
Compare with care: the assays were run in different laboratories. ± gives the spread as reported.
PLEKHA4 PH domain: Pleckstrin homology domain-containing family A member 4, PH domain (PLEKHA4, Homo sapiens, UniProt Q9H4M7)
Sequence of UniProt Q9H4M7 (whole entry, looked up): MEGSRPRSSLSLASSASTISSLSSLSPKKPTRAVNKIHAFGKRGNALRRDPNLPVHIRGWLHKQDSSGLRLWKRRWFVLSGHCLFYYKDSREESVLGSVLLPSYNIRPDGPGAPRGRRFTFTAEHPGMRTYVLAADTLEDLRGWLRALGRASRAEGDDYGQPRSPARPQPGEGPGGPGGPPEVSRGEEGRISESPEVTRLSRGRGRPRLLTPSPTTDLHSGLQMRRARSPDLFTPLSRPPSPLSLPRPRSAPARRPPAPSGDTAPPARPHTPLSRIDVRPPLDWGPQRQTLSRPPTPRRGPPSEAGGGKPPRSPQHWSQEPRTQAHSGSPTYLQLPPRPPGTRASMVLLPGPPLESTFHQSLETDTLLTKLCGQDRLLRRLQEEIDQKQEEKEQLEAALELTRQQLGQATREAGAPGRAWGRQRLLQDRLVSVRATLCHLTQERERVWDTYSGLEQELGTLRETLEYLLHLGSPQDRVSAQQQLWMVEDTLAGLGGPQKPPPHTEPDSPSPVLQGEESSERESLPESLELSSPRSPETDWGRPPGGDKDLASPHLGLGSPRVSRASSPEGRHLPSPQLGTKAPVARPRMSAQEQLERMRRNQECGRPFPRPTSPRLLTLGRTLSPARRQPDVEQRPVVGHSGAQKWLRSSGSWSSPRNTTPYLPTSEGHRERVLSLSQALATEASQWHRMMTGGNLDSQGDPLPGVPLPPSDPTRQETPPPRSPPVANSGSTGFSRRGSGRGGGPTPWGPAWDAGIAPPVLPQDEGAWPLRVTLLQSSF
Isochorismatase domain-containing protein 1: Isochorismatase domain-containing protein 1 (Homo sapiens, UniProt Q96CN7)
Sequence of UniProt Q96CN7 (whole entry, looked up): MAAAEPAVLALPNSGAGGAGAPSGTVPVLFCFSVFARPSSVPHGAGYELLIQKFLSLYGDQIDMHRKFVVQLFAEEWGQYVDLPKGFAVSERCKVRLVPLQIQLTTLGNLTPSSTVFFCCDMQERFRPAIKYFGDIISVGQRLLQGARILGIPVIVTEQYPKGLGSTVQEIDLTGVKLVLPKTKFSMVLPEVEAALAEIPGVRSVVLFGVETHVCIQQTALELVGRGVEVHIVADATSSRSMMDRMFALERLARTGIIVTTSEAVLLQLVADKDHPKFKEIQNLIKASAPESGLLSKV
TGFBR1: TGF-beta receptor type-1 (TGFBR1, Homo sapiens, UniProt P36897)
Sequence of UniProt P36897 (whole entry, looked up): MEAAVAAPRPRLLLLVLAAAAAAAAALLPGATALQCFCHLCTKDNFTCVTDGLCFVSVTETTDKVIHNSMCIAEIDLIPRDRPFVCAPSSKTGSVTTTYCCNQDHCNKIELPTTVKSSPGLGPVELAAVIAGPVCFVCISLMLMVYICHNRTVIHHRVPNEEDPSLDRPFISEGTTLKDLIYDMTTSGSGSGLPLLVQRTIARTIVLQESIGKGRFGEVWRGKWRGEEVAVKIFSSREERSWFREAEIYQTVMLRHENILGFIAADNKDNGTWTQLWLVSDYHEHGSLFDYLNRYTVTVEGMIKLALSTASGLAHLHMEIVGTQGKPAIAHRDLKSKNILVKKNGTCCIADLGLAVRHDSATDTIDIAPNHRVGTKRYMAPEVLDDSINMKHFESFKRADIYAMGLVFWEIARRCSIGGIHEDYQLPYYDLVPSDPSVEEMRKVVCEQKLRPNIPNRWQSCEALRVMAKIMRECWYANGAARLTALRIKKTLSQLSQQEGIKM
Sequence of UniProt Q9UKS7 (whole entry, looked up): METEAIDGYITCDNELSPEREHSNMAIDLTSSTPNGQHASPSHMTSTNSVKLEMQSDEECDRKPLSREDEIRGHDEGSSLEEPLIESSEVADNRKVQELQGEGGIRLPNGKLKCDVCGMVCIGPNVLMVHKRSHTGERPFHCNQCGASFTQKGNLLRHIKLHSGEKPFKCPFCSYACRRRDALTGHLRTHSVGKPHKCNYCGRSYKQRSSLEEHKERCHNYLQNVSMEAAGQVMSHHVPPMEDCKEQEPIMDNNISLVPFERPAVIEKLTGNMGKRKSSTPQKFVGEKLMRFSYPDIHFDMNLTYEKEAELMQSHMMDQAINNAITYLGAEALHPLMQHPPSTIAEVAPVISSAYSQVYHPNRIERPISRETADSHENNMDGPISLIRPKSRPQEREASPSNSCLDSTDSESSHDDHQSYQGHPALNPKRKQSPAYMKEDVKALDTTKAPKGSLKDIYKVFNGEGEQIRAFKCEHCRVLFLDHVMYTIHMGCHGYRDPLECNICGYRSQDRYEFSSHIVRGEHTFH
Sequence of UniProt P35363 (whole entry, looked up): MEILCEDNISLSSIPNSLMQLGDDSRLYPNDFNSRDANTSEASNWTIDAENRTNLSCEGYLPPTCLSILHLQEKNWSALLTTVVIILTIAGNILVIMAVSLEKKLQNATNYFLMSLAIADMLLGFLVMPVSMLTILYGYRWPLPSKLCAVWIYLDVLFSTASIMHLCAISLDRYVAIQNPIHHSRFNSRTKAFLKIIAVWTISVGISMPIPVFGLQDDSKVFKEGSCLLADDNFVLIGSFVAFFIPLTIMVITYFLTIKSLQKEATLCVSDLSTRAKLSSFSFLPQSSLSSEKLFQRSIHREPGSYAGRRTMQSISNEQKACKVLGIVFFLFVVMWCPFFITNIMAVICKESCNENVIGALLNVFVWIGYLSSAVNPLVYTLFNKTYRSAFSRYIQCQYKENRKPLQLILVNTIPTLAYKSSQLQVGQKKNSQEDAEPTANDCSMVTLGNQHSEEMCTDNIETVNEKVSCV
Sequence of UniProt Q16566 (whole entry, looked up): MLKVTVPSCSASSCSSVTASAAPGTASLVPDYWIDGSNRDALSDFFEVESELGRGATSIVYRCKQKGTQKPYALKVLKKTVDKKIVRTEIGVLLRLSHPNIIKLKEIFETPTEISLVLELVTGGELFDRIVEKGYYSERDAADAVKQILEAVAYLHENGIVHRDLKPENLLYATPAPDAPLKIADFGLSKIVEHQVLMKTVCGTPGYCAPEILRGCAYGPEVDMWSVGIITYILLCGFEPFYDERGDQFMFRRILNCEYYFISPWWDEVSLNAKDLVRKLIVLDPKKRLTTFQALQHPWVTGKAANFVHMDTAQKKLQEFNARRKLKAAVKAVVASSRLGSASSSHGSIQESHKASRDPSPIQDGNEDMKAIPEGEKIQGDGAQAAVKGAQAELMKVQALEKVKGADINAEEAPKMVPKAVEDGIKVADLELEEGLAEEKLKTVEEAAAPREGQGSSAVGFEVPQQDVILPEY
Sequence of UniProt Q15391 (whole entry, unmodified, looked up): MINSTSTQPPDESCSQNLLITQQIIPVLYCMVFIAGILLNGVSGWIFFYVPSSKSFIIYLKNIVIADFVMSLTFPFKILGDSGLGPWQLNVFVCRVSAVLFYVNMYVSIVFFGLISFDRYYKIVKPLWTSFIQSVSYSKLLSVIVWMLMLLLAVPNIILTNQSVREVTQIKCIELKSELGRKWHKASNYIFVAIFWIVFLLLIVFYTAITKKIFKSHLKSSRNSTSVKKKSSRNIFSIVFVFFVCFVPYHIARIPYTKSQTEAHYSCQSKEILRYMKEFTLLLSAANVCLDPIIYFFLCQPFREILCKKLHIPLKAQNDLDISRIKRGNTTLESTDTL
Sequence of UniProt P34995 (whole entry, unmodified, looked up): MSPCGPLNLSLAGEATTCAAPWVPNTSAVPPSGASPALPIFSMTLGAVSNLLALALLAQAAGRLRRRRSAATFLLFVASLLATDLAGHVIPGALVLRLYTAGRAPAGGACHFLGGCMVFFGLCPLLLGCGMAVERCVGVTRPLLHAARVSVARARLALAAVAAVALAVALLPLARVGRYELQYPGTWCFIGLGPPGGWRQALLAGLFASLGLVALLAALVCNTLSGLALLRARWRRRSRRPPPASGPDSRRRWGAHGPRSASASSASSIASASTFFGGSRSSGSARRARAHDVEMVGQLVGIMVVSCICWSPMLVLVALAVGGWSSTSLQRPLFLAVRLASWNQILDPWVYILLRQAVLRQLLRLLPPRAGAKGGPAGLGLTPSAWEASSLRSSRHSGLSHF
Sequence of UniProt Q96SW2 (whole entry, looked up): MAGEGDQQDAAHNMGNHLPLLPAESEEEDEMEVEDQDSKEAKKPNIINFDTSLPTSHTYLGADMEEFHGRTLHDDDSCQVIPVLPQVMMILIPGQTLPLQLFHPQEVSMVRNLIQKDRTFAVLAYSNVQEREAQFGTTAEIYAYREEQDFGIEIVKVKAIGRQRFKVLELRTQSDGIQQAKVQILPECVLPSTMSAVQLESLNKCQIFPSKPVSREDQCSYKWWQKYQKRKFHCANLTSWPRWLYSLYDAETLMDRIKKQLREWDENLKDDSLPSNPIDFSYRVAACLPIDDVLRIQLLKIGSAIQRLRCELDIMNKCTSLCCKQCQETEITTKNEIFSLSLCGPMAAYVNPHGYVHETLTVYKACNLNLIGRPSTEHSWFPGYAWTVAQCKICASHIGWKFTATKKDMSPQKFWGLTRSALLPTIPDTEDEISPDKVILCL
Sequence of UniProt P53667 (whole entry, looked up): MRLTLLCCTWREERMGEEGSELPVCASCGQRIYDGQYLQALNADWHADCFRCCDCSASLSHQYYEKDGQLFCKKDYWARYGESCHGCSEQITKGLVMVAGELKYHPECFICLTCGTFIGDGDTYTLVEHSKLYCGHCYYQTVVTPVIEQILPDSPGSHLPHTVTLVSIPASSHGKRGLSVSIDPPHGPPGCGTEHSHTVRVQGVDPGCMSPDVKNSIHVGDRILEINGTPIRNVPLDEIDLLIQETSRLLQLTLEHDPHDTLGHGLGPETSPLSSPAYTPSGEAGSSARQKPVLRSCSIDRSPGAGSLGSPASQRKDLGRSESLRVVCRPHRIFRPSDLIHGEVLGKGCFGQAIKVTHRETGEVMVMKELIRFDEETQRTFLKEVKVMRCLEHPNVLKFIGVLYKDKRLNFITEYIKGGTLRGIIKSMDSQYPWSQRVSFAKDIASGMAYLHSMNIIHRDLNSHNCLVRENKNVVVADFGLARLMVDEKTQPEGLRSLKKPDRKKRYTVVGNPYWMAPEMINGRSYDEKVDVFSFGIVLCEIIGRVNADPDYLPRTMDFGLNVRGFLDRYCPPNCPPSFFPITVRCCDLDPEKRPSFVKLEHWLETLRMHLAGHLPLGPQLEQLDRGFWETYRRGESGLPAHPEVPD

SMILES = CCOc1ccc(C(=O)CC(SCc2ccc(OC)cc2)C(=O)O)cc1 (stereo not drawn); tested on = PLEKHA4 PH domain; test = PLEKHA4 PI(4,5)P2 binding, fluorescence polarization; setting = with: BODIPY-PI(4,5)P2 tracer; measurement = Ki; result = 222 ± 23 µM
SMILES = N#C[C@@]12C[C@@H]1[C@@H](n1cnc3c(NC4CCCC4)nc(I)nc31)[C@H](O)[C@@H]2O; tested on = Htr2a (Mus musculus, UniProt P35363); test = antagonist, Gq dissociation BRET; setting = mouse receptor; measurement = Kb; result = 6.55 µM
SMILES = Cc1cccc(C(=O)O)c1; tested on = THP-1; test = pyroptotic LDH release; setting = 2 µM, 40 min, with: LPS then nigericin; measurement = inhibition; result = -5.85%
SMILES = COc1cc2c(c(OC)c1OC)-c1c(cc(OC)c(OC)c1OC)C[C@H](C)[C@H](C)C2; tested on = CYP3A, rat; test = poziotinib metabolism to M1, inhibitor; system = rat liver microsomes; setting = with: poziotinib; measurement = αKi; result = 57 µM
SMILES = Cc1nn(CC(F)(F)F)cc1Nc1nccc(NCCCNC(=O)C2CCC2)n1; tested on = 16-kinase panel; test = radiometric; setting = 1 µM, ATP at Km; how to read = below 10% of control; measurement = number of kinases inhibited; result = 0
SMILES = CCOc1ccc(C(=O)CC(SCc2ccccc2)C(=O)O)cc1 (stereo not drawn); tested on = PLEKHA4 PH domain; test = PLEKHA4 PI(4,5)P2 binding, fluorescence polarization; setting = with: BODIPY-PI(4,5)P2 tracer; measurement = Ki; result = 219 ± 17 µM
SMILES = CN1CCN(c2ccc(Nc3ncc4cc(C#N)c(=O)n(C5CCCC5)c4n3)cc2)CC1; tested on = LIM domain kinase 1 (LIMK1, Homo sapiens, UniProt P53667); measurement = IC50; result = 0.0855 µM
SMILES = Cc1nn(CC(F)(F)F)cc1Nc1ncc(Br)c(NCc2ccc(S(N)(=O)=O)cc2)n1; tested on = 16-kinase panel; test = radiometric; setting = 1 µM, ATP at Km; how to read = below 10% of control; measurement = number of kinases inhibited; result = 12
SMILES = Cc1cnc(C)cn1; tested on = THP-1; test = pyroptotic LDH release; setting = 2 µM, 40 min, with: LPS then nigericin; measurement = inhibition; result = 16.3%
SMILES = CC[C@@H]1[C@H](F)C(=O)N[C@@H]1COc1nccc2cc(C(N)=O)c(OC)cc12; tested on = CAMK4 (Homo sapiens, UniProt Q16566); test = ATP-site probe binding, ActivX profiling; system = THP-1 cell lysate; setting = Lys2 site; measurement = IC50; result = > 5 µM
SMILES = O=C(CCCCCCC(=O)Nc1ccccc1)NO; tested on = Isochorismatase domain-containing protein 1; test = inhibitor, competition pulldown; system = SW620 and MV4-11 lysate; setting = 1 h; measurement = Kd; result = 0.152 µM
SMILES = CCOC(=O)c1cc(-c2ccc(OCC)cc2)oc1-c1ccc(Cl)cc1; tested on = PLEKHA4 PH domain; test = PLEKHA4 PI(4,5)P2 binding, fluorescence polarization; setting = with: BODIPY-PI(4,5)P2 tracer; measurement = Ki; result = > 100 µM
SMILES = COc1cc2c(c(OC)c1OC)-c1c(cc3c(c1OC)OCO3)CC(C)C(C)C2 (stereo not drawn); tested on = CYP3A, rat; test = poziotinib metabolism to M2, inhibitor; system = rat liver microsomes; setting = with: poziotinib; measurement = αKi; result = 18.1 µM
SMILES = Fc1ccc(-c2nc(-c3ccc4ccccc4c3Br)[nH]c2-c2ccncc2)cc1; tested on = TGFBR1; test = binding, LanthaScreen kinase binding; measurement = IC50; result = 0.0756 ± 0.0093 µM
SMILES = CCCCC[C@H](O)/C=C/[C@H]1[C@H](O)CC(=O)[C@@H]1C/C=C\CCCC(=O)O; tested on = PTGER1 (Homo sapiens, UniProt P34995, E294A); test = IP1 accumulation, agonist; system = AD293; setting = EP1 E294A mutant; measurement = EC50; result = 0.00317 µM
SMILES = Cc1nn(CC(F)(F)F)cc1Nc1ncc(Br)c(NCCCNC(=O)C2CCC2)n1; tested on = 16-kinase panel; test = radiometric; setting = 1 µM, ATP at Km; how to read = below 10% of control; measurement = number of kinases inhibited; result = 7
SMILES = O=C(NO)c1cnc(NC2(c3ccccc3)CC2)nc1; tested on = Isochorismatase domain-containing protein 1; test = inhibitor, competition pulldown; system = SW620 and MV4-11 lysate; setting = 1 h; measurement = Kd; result = > 30.2 µM
SMILES = NS(=O)(=O)c1ccc(CNc2nc(Nc3cccc(CN4CCOCC4)c3)ncc2C2CC2)cc1; tested on = 16-kinase panel; test = radiometric; setting = 1 µM, ATP at Km; how to read = below 10% of control; measurement = number of kinases inhibited; result = 1
SMILES = CCOc1ccc(C(=O)CC(SCc2ccc(Cl)cc2)C(=O)O)cc1 (stereo not drawn); tested on = PLEKHA4 PH domain; test = PLEKHA4 PI(4,5)P2 binding, fluorescence polarization; setting = with: BODIPY-PI(4,5)P2 tracer; measurement = Ki; result = 45.4 ± 3.5 µM
SMILES = O=C(NCCCNc1nc(Nc2cccc(NC(=O)N3CCCC3)c2)ncc1C1CC1)C1CCC1; tested on = 16-kinase panel; test = radiometric; setting = 1 µM, ATP at Km; how to read = below 10% of control; measurement = number of kinases inhibited; result = 9
SMILES = Fc1ccc(-c2nc(-c3ccccc3Cl)[nH]c2-c2ccncc2)cc1; tested on = TGFBR1; test = binding, LanthaScreen kinase binding; measurement = IC50; result = 0.192 ± 0.0203 µM
SMILES = O=C(NCCCNc1ccnc(Nc2cccc(NC(=O)N3CCCC3)c2)n1)C1CCC1; tested on = 16-kinase panel; test = radiometric; setting = 1 µM, ATP at Km; how to read = below 10% of control; measurement = number of kinases inhibited; result = 0
SMILES = O=c1ccn([C@@H]2O[C@H](COP(=O)(O)OP(=O)(O)O[C@H]3O[C@H](CO)[C@@H](O)[C@H](O)[C@H]3O)[C@@H](O)[C@H]2O)c(=S)[nH]1; tested on = P2Y purinoceptor 14 (P2RY14, Homo sapiens, UniProt Q15391, R274A); measurement = Ki; result = 9.68 µM
SMILES = O=C(NCCCNc1nc(Nc2cccc(NC(=O)N3CCCC3)c2)ncc1I)c1cccs1; tested on = 16-kinase panel; test = radiometric; setting = 1 µM, ATP at Km; how to read = below 10% of control; measurement = number of kinases inhibited; result = 14
SMILES = O=C1CCC(N2Cc3cc(C4CCN(Cc5ccccc5)CC4)ccc3C2=O)C(=O)N1 (stereo not drawn); tested on = CRBN/Zinc finger protein Helios (Homo sapiens, UniProt Q96SW2+Q9UKS7); test = protein degradation, degrader, immunoblot; system = Jurkat; setting = 4 h; measurement = DC50; result = 0.043 µM
SMILES = Cc1nn(CC(F)(F)F)cc1Nc1ncc(C2CC2)c(NCc2ccc(S(N)(=O)=O)cc2)n1; tested on = 16-kinase panel; test = radiometric; setting = 1 µM, ATP at Km; how to read = below 10% of control; measurement = number of kinases inhibited; result = 1
SMILES = CCOc1ccc(C(=O)CC(SCc2ccccc2Br)C(=O)O)cc1 (stereo not drawn); tested on = PLEKHA4 PH domain; test = PLEKHA4 PI(4,5)P2 binding, fluorescence polarization; setting = with: BODIPY-PI(4,5)P2 tracer; measurement = Ki; result = 50.4 ± 9.6 µM

A few entries again:
SMILES = O=C(NCCCNc1nc(Nc2cccc(NC(=O)N3CCCC3)c2)ncc1I)c1cccs1; tested on = 16-kinase panel; test = radiometric; setting = 1 µM, ATP at Km; how to read = below 10% of control; measurement = number of kinases inhibited; result = 14
SMILES = Cc1nn(CC(F)(F)F)cc1Nc1ncc(C2CC2)c(NCc2ccc(S(N)(=O)=O)cc2)n1; tested on = 16-kinase panel; test = radiometric; setting = 1 µM, ATP at Km; how to read = below 10% of control; measurement = number of kinases inhibited; result = 1
SMILES = O=C(NCCCNc1ccnc(Nc2cccc(NC(=O)N3CCCC3)c2)n1)C1CCC1; tested on = 16-kinase panel; test = radiometric; setting = 1 µM, ATP at Km; how to read = below 10% of control; measurement = number of kinases inhibited; result = 0
